Published values from different studies.
Lines come from different studies, so protocols differ. Numbers after ± are the reported error.

COc1cc(C(=O)NC2CCN(C)CC2)c(F)cc1Nc1ncc(C(F)(F)F)c(Oc2cccc3c2C(=O)N(C)C3)n1  Vz/F (human patients, plasma; oral, 200 mg once daily, steady state): 311 L
COc1cc2nccc(Oc3ccc(NC(=O)NC4CC4)c(Cl)c3)c2cc1C(N)=O  Vz/F (human, plasma; oral, 5 mg, arithmetic mean, added: placebo): 347 L
CCOc1c([C@H](C)n2nc(C)c3c(N)ncnc32)cc(Cl)c(F)c1[C@@H]1CNC(=O)C1  Vz/F (healthy fasted humans, plasma; oral, 20 mg): 63 ± 20.7 L
CC(C)NC[C@@H](C(=O)N1CCN(c2ncnc3c2[C@H](C)C[C@H]3O)CC1)c1ccc(Cl)cc1  Vz/F (human, Severe hepatic function (Child-Pugh), plasma; oral, 100 mg single dose, geometric mean): 10600 L
CCCS(=O)(=O)N[C@H]1C[C@@H](N(C)c2ncnc3[nH]ccc23)C1  Vz/F (human, moderate hepatic impairment; oral, 200 mg, single dose, geometric mean): 224 L
CCn1c(=O)c2c(nc(/C=C/c3ccc(OC)c(OC)c3)n2C)n(CC)c1=O  Vz/F (healthy human, plasma; oral, 40 mg single dose, arithmetic mean, added: rifampin 600 mg/day steady state): 925 L
O=C(c1cccnc1-c1ccncc1)N1CCC(O)(Cc2ccccc2)CC1  Vz/F (healthy human, plasma; oral, 300 mg once daily, day 1, arithmetic mean): 1180 L
CC[C@H](C)[C@@H]1NC(=O)[C@H](CCCNC(=N)N)NC(=O)[C@H](CC(=O)O)NC(=O)[C@H](CC(C)C)NC(=O)[C@H](CCCCN)NC(=O)[C@H](CC(C)C)NC(=O)CNC(=O)[C@H](Cc2ccccc2)NC(=O)[C@@H](NC(=O)CNC(=O)[C@H](CCCCN)NC(=O)[C@H](CO)NC(=O)[C@H](CC(C)C)NC(=O)CNC(=O)[C@H](CCCCN)NC(=O)[C@H](CCCCN)NC(=O)[C@H](CC(N)=O)NC(=O)[C@H](C)NC(=O)CNC(=O)[C@H](CCCCN)NC(=O)[C@H](Cc2ccc(O)cc2)NC(=O)[C@H](CCCCN)NC(=O)[C@H](CCCNC(=N)N)NC(=O)[C@H](C)NC(=O)[C@H](CC(N)=O)NC(=O)[C@@H]2CCCN2C(=O)[C@H](Cc2c[nH]cn2)NC(=O)[C@H](CCC(=O)O)NC(=O)[C@H](CCC(N)=O)NC(=O)CNC(=O)[C@@H]2CCCN2)CSSC[C@@H](C(=O)O)NC(=O)CNC(=O)[C@H](CC(C)C)NC(=O)CNC(=O)[C@H](CO)NC(=O)[C@H](CCSC)NC(=O)[C@H](CO)NC(=O)CNC1=O  Vz/F (ECLA; human, plasma; subcutaneous, 15 µg/kg once daily, day 1): 2.88 L/kg
CCOc1ccc(Cc2cc([C@]34OC[C@](CO)(O3)[C@@H](O)[C@H](O)[C@H]4O)ccc2Cl)cc1  Vz/F (human, type 2 diabetes, moderate renal impairment, plasma; oral, 15 mg): 228 L
CNC(=O)c1c(C)oc2cc(Oc3ncnc4cc(OC)c(OC)cc34)ccc12  Vz/F (human, plasma; oral, 5 mg, fasted): 47 L
C=CC(=O)N1CCC(CNc2ncnc(N)c2-c2ccc(Oc3ccccc3)cc2)CC1  Vz/F (human, plasma; oral, 50 mg single dose, geometric mean): 455 L

Repeated from above:
CC[C@H](C)[C@@H]1NC(=O)[C@H](CCCNC(=N)N)NC(=O)[C@H](CC(=O)O)NC(=O)[C@H](CC(C)C)NC(=O)[C@H](CCCCN)NC(=O)[C@H](CC(C)C)NC(=O)CNC(=O)[C@H](Cc2ccccc2)NC(=O)[C@@H](NC(=O)CNC(=O)[C@H](CCCCN)NC(=O)[C@H](CO)NC(=O)[C@H](CC(C)C)NC(=O)CNC(=O)[C@H](CCCCN)NC(=O)[C@H](CCCCN)NC(=O)[C@H](CC(N)=O)NC(=O)[C@H](C)NC(=O)CNC(=O)[C@H](CCCCN)NC(=O)[C@H](Cc2ccc(O)cc2)NC(=O)[C@H](CCCCN)NC(=O)[C@H](CCCNC(=N)N)NC(=O)[C@H](C)NC(=O)[C@H](CC(N)=O)NC(=O)[C@@H]2CCCN2C(=O)[C@H](Cc2c[nH]cn2)NC(=O)[C@H](CCC(=O)O)NC(=O)[C@H](CCC(N)=O)NC(=O)CNC(=O)[C@@H]2CCCN2)CSSC[C@@H](C(=O)O)NC(=O)CNC(=O)[C@H](CC(C)C)NC(=O)CNC(=O)[C@H](CO)NC(=O)[C@H](CCSC)NC(=O)[C@H](CO)NC(=O)CNC1=O  Vz/F (ECLA; human, plasma; subcutaneous, 15 µg/kg once daily, day 1): 2.88 L/kg
CCOc1ccc(Cc2cc([C@]34OC[C@](CO)(O3)[C@@H](O)[C@H](O)[C@H]4O)ccc2Cl)cc1  Vz/F (human, type 2 diabetes, moderate renal impairment, plasma; oral, 15 mg): 228 L
